Published values collected from several papers.
A part holds a random share of what one study measured. “And” joins repeats or separate records; there may be more than shown.
UniProt P49759, sequence (whole entry, looked up): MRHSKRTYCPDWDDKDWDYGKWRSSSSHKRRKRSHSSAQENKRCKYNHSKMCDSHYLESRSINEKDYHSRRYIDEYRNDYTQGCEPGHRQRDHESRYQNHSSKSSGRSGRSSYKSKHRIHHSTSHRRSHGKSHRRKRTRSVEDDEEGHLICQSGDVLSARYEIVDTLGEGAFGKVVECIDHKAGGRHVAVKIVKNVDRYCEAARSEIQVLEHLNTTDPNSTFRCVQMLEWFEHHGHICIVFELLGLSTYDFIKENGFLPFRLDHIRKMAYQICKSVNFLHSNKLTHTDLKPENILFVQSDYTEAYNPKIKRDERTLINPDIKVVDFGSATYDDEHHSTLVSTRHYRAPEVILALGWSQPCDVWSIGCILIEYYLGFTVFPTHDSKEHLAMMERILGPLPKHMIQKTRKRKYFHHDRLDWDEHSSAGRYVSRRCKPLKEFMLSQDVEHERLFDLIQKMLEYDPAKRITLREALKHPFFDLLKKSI
UniProt P00519, sequence (whole entry, looked up): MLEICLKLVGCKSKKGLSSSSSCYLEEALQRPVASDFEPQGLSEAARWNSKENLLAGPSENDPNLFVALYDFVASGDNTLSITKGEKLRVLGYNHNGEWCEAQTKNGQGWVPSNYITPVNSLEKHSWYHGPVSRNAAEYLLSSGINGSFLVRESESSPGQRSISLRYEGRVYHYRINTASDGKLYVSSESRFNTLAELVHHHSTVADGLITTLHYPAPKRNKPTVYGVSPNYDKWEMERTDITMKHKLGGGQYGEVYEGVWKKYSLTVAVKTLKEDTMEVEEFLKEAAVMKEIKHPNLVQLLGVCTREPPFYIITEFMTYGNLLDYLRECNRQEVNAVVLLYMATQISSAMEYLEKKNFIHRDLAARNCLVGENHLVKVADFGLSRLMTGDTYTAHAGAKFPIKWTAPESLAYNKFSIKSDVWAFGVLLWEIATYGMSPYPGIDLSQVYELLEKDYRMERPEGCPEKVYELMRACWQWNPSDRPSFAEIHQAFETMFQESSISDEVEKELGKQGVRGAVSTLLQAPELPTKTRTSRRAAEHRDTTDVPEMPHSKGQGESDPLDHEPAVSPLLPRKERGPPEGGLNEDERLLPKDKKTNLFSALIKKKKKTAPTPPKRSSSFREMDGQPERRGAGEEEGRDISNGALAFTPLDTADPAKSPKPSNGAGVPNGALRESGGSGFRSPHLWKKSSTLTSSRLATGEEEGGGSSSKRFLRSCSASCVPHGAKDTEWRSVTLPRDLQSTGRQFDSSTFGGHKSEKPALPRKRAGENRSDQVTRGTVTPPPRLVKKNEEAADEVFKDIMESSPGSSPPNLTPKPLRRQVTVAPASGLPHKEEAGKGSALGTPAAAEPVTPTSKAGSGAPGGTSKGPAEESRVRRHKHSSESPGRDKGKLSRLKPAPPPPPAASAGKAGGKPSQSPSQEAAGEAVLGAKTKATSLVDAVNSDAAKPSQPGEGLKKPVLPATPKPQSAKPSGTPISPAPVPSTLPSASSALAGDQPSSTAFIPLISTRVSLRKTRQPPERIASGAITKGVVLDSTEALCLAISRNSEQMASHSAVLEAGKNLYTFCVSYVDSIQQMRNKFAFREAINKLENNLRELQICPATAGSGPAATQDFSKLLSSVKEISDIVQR
UniProt P28482, sequence (whole entry, looked up): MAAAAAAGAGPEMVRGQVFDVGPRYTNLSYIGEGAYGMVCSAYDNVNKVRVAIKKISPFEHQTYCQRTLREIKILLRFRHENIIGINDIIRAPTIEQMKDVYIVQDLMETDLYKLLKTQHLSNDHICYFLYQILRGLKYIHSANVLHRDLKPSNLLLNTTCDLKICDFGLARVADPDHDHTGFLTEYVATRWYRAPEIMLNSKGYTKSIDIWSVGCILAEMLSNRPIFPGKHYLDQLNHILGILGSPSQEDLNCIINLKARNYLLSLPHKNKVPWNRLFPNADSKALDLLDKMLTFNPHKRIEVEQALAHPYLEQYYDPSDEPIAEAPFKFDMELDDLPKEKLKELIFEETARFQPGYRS
UniProt P53778, sequence (whole entry, looked up): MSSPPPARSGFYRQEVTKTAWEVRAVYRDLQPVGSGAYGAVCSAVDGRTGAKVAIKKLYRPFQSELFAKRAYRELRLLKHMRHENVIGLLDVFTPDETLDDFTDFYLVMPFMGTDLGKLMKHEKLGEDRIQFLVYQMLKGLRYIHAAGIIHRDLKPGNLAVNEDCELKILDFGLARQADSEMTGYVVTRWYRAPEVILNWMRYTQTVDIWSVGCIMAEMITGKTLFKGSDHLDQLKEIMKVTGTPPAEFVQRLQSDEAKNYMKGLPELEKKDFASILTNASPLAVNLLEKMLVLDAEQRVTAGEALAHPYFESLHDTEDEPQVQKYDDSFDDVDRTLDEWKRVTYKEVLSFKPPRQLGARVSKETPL

Series 1 — tested at: 1 µM
Compound: CC[C@@]1(c2cccc(C(F)(F)F)c2)C2=C(Nc3n[nH]cc31)[C@H](F)C(C)(C)CC2=O (single isomer, unassigned)
It gave 100% for remaining binding (Mitogen-activated protein kinase 1 (MAPK1, Homo sapiens, UniProt P28482); kinase binding, KINOMEscan; reference: DMSO control).
It gave 81% for remaining binding (Serine/threonine-protein kinase PLK2 (PLK2, Homo sapiens, UniProt Q9NYY3); kinase binding, KINOMEscan; reference: DMSO control).
For Mitogen-activated protein kinase 12 (MAPK12, Homo sapiens, UniProt P53778); binding, competition with immobilised ligand: remaining binding read 100%.
It gave 70% for remaining binding (Tyrosine-protein kinase ABL1, phosphorylated (ABL1, Homo sapiens, UniProt P00519); kinase binding, KINOMEscan; reference: DMSO control).
For Wee1-like protein kinase (WEE1, Homo sapiens, UniProt P30291); kinase binding, KINOMEscan; reference: DMSO control: remaining binding read 100%.
The remaining binding was 93% (Dual specificity protein kinase CLK1 (CLK1, Homo sapiens, UniProt P49759); kinase binding, KINOMEscan; reference: DMSO control).
It gave 83% for remaining binding (eIF-2-alpha kinase GCN2 (EIF2AK4, Homo sapiens, UniProt Q9P2K8, S808G); kinase binding, KINOMEscan; reference: DMSO control).
It gave 100% for remaining binding (Mitogen-activated protein kinase kinase kinase 14 (MAP3K14, Homo sapiens, UniProt Q99558); binding, competition with immobilised ligand).

Series 2 — route: intravenous
Compound: Cc1ncsc1-c1ccc(C(CO)NC(=O)C2CC(O)CN2C(=O)C(C(C)C)n2cc(-c3ccc(COc4c(-c5c(C)c(F)cc6[nH]ncc56)c(C5CC5)cc5c(N6CC7CC6CN7)nc(OC6CCOCC6)nc45)cc3)nn2)cc1 (centres unmarked)
It gave 611 ng/mL and 1230 ng/mL and 1100 ng/mL for concentration (male Balb/c nu/nu mouse, PK-59 xenograft, plasma; 30 mg/kg, 6 h).
The concentration was 46 ng/g and 51.6 ng/g (mouse, PK-59 xenograft, pancreas; 10 mg/kg, 48 h).
For male Balb/c nu/nu mouse (PK-59 xenograft), plasma; 30 mg/kg, 2 h: concentration read 9530 ng/mL.
It gave 1180 ng/g and 1370 ng/g for concentration (male Balb/c nu/nu mouse, PK-59 xenograft, tumor; 30 mg/kg, 24 h).
It gave 17.6 ng/mL for concentration (male Balb/c nu/nu mouse (PK-59 xenograft), plasma; 10 mg/kg, 24 h).
For mouse, PK-59 xenograft, tumor; 10 mg/kg, 72 h: concentration read 118 ng/g and 153 ng/g.
mouse, PK-59 xenograft, tumor; 30 mg/kg, 144 h — concentration: 1120 ng/g and 771 ng/g and 451 ng/g.
male Balb/c nu/nu mouse (PK-59 xenograft), pancreas; 30 mg/kg, 2 h — concentration: 1060 ng/g.

Series 3 — action: degrader; method: HiBiT; cells: HEK293
SMILES: Cn1cc(-c2cccc(CN3CCC4(CC3)COc3c4ccc4c3CN([C@@H]3CCC(=O)NC3=O)C4=O)c2)cn1
Zinc finger protein Aiolos: Zinc finger protein Aiolos (Homo sapiens, UniProt Q9UKT9)
UniProt Q9UKT9, sequence (whole entry, looked up): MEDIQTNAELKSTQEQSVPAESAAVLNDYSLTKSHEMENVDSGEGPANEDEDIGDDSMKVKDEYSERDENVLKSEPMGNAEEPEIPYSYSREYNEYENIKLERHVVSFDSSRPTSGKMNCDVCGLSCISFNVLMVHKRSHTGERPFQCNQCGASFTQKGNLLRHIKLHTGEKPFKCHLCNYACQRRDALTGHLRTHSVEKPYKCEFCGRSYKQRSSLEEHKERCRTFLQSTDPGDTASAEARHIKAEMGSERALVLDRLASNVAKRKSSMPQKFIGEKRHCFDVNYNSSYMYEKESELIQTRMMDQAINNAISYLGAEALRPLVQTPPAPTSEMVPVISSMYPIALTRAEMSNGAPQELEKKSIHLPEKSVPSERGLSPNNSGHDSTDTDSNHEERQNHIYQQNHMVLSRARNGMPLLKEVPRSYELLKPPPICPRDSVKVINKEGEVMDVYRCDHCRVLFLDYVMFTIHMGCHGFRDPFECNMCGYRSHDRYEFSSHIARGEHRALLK
DNA-binding protein Ikaros: DNA-binding protein Ikaros (Homo sapiens, UniProt Q13422)
UniProt Q13422, sequence (whole entry, looked up): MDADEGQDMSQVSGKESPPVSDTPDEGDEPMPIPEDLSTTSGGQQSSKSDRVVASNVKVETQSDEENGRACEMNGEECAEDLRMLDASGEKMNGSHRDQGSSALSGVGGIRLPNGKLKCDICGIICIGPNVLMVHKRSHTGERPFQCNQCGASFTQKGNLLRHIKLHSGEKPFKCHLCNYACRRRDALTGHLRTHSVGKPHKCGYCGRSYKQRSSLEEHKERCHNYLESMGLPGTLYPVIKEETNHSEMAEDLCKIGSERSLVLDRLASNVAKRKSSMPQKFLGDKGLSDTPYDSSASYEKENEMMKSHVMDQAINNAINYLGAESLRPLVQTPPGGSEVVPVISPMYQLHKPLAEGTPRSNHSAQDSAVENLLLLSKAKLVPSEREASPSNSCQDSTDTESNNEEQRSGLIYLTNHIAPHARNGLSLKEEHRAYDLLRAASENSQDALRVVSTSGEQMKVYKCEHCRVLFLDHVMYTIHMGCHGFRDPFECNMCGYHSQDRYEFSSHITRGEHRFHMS
SALL4: Sal-like protein 4 (SALL4, Homo sapiens, UniProt Q9UJQ4)
UniProt Q9UJQ4, sequence (whole entry, looked up): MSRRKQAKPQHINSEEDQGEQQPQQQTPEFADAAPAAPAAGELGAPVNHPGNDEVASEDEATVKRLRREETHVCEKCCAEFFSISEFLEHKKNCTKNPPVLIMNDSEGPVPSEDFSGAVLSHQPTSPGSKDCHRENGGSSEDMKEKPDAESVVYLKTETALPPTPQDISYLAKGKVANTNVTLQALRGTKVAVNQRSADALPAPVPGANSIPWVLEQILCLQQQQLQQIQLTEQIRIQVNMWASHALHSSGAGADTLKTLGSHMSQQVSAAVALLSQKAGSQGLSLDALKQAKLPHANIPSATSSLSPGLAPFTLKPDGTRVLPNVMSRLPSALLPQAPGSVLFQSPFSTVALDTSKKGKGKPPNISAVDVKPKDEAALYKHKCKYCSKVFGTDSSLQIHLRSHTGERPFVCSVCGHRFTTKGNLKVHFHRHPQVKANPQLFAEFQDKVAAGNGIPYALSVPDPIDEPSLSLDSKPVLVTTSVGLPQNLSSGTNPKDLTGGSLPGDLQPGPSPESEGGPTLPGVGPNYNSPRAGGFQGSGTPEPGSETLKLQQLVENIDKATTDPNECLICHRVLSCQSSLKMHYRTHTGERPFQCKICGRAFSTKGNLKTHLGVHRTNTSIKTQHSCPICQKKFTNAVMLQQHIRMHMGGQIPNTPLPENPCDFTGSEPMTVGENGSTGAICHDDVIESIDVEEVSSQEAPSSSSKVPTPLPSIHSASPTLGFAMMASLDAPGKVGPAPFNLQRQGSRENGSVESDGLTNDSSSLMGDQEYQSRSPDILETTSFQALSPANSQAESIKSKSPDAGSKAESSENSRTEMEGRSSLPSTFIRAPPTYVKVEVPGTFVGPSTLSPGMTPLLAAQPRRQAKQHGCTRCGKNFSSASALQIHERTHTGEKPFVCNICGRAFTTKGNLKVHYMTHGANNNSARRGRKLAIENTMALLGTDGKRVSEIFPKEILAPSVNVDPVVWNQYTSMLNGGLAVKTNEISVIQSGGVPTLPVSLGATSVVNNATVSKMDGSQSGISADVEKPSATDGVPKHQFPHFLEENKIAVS
GSPT1: Eukaryotic peptide chain release factor GTP-binding subunit ERF3A (GSPT1, Homo sapiens, UniProt P15170)
UniProt P15170, sequence (whole entry, looked up): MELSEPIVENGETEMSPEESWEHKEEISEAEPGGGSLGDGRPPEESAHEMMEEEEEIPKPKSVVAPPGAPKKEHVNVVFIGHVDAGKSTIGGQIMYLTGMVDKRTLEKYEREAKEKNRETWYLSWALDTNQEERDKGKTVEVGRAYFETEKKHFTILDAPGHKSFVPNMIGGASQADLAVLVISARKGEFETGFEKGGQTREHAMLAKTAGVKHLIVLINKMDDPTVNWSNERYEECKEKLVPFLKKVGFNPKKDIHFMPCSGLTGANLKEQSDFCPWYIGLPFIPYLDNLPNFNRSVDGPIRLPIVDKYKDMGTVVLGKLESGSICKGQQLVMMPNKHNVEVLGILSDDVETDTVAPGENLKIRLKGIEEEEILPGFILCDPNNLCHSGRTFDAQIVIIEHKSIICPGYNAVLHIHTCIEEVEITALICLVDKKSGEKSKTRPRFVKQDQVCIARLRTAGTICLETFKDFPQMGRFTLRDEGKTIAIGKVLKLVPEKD
Zinc finger protein Aiolos; 13.72 nM — remaining protein: 100% and 99.8%.
It gave 96.5% and 93.8% for remaining protein (DNA-binding protein Ikaros; 10000 nM).
For SALL4; 13.72 nM: remaining protein read 104% and 88.5%.
The remaining protein was 102% (Zinc finger protein Aiolos; 0.5081 nM).
The remaining protein was 104% and 105% (GSPT1; 41.15 nM).
GSPT1; 3333.33 nM — remaining protein: 102% and 87%.
The remaining protein was 94.9% and 103% (SALL4; 0.5081 nM).
It gave 95.6% and 92.9% for remaining protein (DNA-binding protein Ikaros; 1111.11 nM).
For DNA-binding protein Ikaros; 370.37 nM: remaining protein read 98%.
GSPT1; 1.524 nM — remaining protein: 105% and 99.8%.
Zinc finger protein Aiolos; 10000 nM — remaining protein: 94% and 93.2%.
The remaining protein was 104% and 100% (DNA-binding protein Ikaros; 0.5081 nM).
SALL4; 41.15 nM — remaining protein: 90.3% and 85.2%.

Other studies, line by line
With `N=C(N)NCCCCCCN1CCC23c4c5ccc(O)c4OC2c2nc4ccccc4cc2CC3(O)C1C5` (centres unmarked) the seizure score was 0 (modified Racine scale; C57BL/6J mice, male; intracerebroventricular, 100 nmol, 40 min; direction not given).
The inhibition of `C#CCN1C(=O)C(O)(C(=O)O)Oc2cc(F)ccc21` (centres unmarked) is reported as 20.9% (Arabidopsis thaliana; root length; Col-0; 6.25 µg/mL, 7 days, seed germination, dark).
For `FC(F)(F)c1ccc(C2=NOC3(NC(c4ccccc4)=NO3)N2c2ccccc2)cc1` (centres unmarked), the N-carbamoyl-L-aspartate level was 12 fold (Plasmodium falciparum; LC-MS; infected erythrocytes, 3D7; 10 µM, 5 h; reference: DMSO).

Repeated from above (series 3):
GSPT1; 1.524 nM — remaining protein: 105% and 99.8%.
For DNA-binding protein Ikaros; 370.37 nM: remaining protein read 98%.
